{"data": "Measurements gathered from unrelated publications", "note": "A part holds a random share of what one study measured."}
{"data": "Set 1", "target": "Centromere-binding protein 1, full length, N-terminal tag (CBF1, Saccharomyces cerevisiae, UniProt P17106, residues 1-351)", "method": "protein-binding microarray", "form": "double-stranded DNA, one strand shown", "matrix": "in vitro", "tested at": "0.8 µM", "setting": "whole 60-bp probe, no competitor", "reading": "higher = stronger binding", "sequence of UniProt P17106 (whole entry, looked up)": "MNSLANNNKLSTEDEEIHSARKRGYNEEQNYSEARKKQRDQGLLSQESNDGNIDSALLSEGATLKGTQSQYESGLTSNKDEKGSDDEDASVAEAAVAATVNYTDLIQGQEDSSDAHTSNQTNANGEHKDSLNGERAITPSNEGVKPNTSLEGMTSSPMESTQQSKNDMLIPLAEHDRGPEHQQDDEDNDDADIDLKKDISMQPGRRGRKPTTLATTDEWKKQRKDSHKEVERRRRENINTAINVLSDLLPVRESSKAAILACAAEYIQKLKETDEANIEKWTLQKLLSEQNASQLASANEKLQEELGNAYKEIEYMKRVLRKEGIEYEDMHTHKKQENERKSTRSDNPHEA"}
{"Oligonucleotide": "GAAGGGAATAGGTCACATGAAACGACGACAACTTAGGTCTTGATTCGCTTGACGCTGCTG", "fluorescence intensity [a.u.]": 2150}
{"Oligonucleotide": "CTAGACAGTGTAAGCACCACCAGCGACGGTCTTTTCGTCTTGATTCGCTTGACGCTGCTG", "fluorescence intensity [a.u.]": 498}
{"Oligonucleotide": "GAAAAATTGCCTTATAACGTGGGCCATGTCATGTAGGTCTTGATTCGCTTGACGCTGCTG", "fluorescence intensity [a.u.]": 530}
{"Oligonucleotide": "CTACACACATGAGTTATCATGAGGAGTCATCAGTTCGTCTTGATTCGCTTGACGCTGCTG", "fluorescence intensity [a.u.]": 548}
{"Oligonucleotide": "GAAGTAATCTATCGTGGTCATTTCTTGTTCTCATAGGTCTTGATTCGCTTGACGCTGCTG", "fluorescence intensity [a.u.]": 517}
{"Oligonucleotide": "GAACTTTAAGTCCATCACATGGTGTTTTATGGGTAGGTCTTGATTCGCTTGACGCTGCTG", "fluorescence intensity [a.u.]": 1930}
{"Oligonucleotide": "GAAGTTTGCTCATAATACAGTCACAGATGTGAGTAGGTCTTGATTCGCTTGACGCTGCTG", "fluorescence intensity [a.u.]": 568}
{"Oligonucleotide": "GAACATAACCTATGTCACCATCTAACACCGTATTAGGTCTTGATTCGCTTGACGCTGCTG", "fluorescence intensity [a.u.]": 538}
{"Oligonucleotide": "CTACTAGCATTTTATCACATGAGGTGTAAGAAGTTCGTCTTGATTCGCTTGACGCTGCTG", "fluorescence intensity [a.u.]": 1050}
{"Oligonucleotide": "CCTAACTACTATAACGTGATGGCATAGCTTCGTACAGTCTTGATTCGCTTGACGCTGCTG", "fluorescence intensity [a.u.]": 1000}
{"Oligonucleotide": "TGTACGAAGCTATCCCACCTGCATATAGTAGTTAGGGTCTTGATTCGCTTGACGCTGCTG", "fluorescence intensity [a.u.]": 469}
{"Oligonucleotide": "CTAATTTTTTGTAGTGTGATGTTGACATGGTTATTCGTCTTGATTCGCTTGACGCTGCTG", "fluorescence intensity [a.u.]": 681}
{"Oligonucleotide": "CCTAACTACTATAATCACAAGGAATAGCTTCGTACAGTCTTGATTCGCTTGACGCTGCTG", "fluorescence intensity [a.u.]": 513}
{"Oligonucleotide": "CCTAACTACTATAACGTGCCTACATAGCTTCGTACAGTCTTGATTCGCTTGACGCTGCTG", "fluorescence intensity [a.u.]": 636}
{"Oligonucleotide": "GAAAATACCCGGCATCACGCATTTATTATATGATAGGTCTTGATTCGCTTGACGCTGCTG", "fluorescence intensity [a.u.]": 629}
{"Oligonucleotide": "GAAATTGGATACCCTGATGTAATGCAAAACTTTTAGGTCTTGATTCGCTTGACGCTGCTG", "fluorescence intensity [a.u.]": 569}
{"Oligonucleotide": "GAAAGAAATGAAAACCCCGTGGTTATAAATTAGTAGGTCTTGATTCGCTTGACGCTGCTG", "fluorescence intensity [a.u.]": 1390}
{"Oligonucleotide": "CTATGTCTTACAAAGCTCGTGATATTAGTATGCTTCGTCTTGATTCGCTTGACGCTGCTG", "fluorescence intensity [a.u.]": 1050}
{"Oligonucleotide": "CTATGAGTCGCACCCCACATGGATATCGTACTATTCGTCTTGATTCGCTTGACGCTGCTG", "fluorescence intensity [a.u.]": 509}
{"Oligonucleotide": "GAATCATATAATAAGCACGCACGAGATGTCCTCTAGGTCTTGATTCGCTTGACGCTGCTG", "fluorescence intensity [a.u.]": 802}
{"Oligonucleotide": "GAACTTCTTGCTCATCACGATAATTATACTATTTAGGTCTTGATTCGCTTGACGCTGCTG", "fluorescence intensity [a.u.]": 551}
{"data": "Set 2", "target": "Sal-like protein 4, full length isoform B (SALL4, Homo sapiens, UniProt Q9UJQ4-2, residues 1-616)", "method": "universal PBM", "form": "double-stranded DNA, one strand shown", "matrix": "in vitro", "tested at": "not given", "setting": "8-mer, flanks averaged, mean of replicates", "reading": "higher = stronger binding"}
{"Oligonucleotide": "CTCCTAAG", "E-score": -0.183}
{"Oligonucleotide": "AGGGTATG", "E-score": 0.0788}
{"Oligonucleotide": "CGGGCCTC", "E-score": -0.224}
{"Oligonucleotide": "ACCTGGGC", "E-score": -0.187}
{"Oligonucleotide": "ACACCACA", "E-score": -0.0164}
{"Oligonucleotide": "CTTTCCTA", "E-score": 0.00885}
{"Oligonucleotide": "CGCACGTA", "E-score": -0.0187}
{"Oligonucleotide": "CAATCAAC", "E-score": 0.00315}
{"Oligonucleotide": "AGCGTCGC", "E-score": -0.185}
{"Oligonucleotide": "GGACCTTA", "E-score": -0.101}
{"Oligonucleotide": "ACTTACCT", "E-score": 0.0249}
{"Oligonucleotide": "CCGCGGAA", "E-score": -0.197}
{"Oligonucleotide": "CCCCAATA", "E-score": 0.174}
{"Oligonucleotide": "GTGTTGTA", "E-score": 0.127}
{"Oligonucleotide": "CCCCTCAG", "E-score": -0.376}
{"Oligonucleotide": "CCGCCGAG", "E-score": -0.289}
{"Oligonucleotide": "CGTGCCAG", "E-score": -0.225}
{"Oligonucleotide": "CATCCCGC", "E-score": -0.23}
{"Oligonucleotide": "AGCGATGA", "E-score": -0.0884}
{"Oligonucleotide": "AAAGACCC", "E-score": -0.0811}
{"Oligonucleotide": "CGCGGTGC", "E-score": -0.363}
{"Oligonucleotide": "CACACTAG", "E-score": -0.00553}
{"Oligonucleotide": "GCAAGGAA", "E-score": -0.138}
{"Oligonucleotide": "AGCCTCCG", "E-score": -0.361}
{"Oligonucleotide": "CCTGGAGC", "E-score": -0.201}
{"data": "Set 3", "target": "Histone acetyltransferase KAT6A, winged helix 2, GST fusion (KAT6A, Homo sapiens, UniProt Q92794, residues 85-181)", "method": "protein binding microarray", "form": "double-stranded DNA, one strand shown", "matrix": "in vitro", "tested at": "not given", "setting": "8-mer, flanks averaged, mean of 2 arrays, mostly near background", "reference": "not given", "reading": "higher = stronger binding", "Construct (chain)": "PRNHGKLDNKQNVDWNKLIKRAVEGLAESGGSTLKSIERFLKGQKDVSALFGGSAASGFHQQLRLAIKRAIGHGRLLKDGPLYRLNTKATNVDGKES"}
{"Oligonucleotide": "ATCAAGGA", "E-score": 0.0109}
{"Oligonucleotide": "CAGCGTAC", "E-score": -0.0235}
{"Oligonucleotide": "ATAAATTC", "E-score": 0.0535}
{"Oligonucleotide": "GGCATGTA", "E-score": -0.177}
{"Oligonucleotide": "AGCAGGCT", "E-score": -0.0562}
{"Oligonucleotide": "CACATTGG", "E-score": -0.0603}
{"Oligonucleotide": "CAGAGTTC", "E-score": -0.0286}
{"Oligonucleotide": "ATTGTTAG", "E-score": -0.0651}
{"Oligonucleotide": "CCGAACAA", "E-score": -0.038}
{"Oligonucleotide": "ATATGCGA", "E-score": -0.12}
{"Oligonucleotide": "AATACGAG", "E-score": 0.0798}
{"Oligonucleotide": "ATGTCAAA", "E-score": -0.0329}
{"Oligonucleotide": "AATTGGGA", "E-score": 0.0152}
{"Oligonucleotide": "AAAGGCTG", "E-score": -0.0343}
{"Oligonucleotide": "ACTTACGA", "E-score": -0.0946}
{"Oligonucleotide": "ATGAGCAA", "E-score": 0.138}
{"Oligonucleotide": "ACTCACCT", "E-score": -0.081}
{"data": "Set 4", "target": "RNA binding protein fox-1 homolog 2, RRM domain, GST-SBP tag (RBFOX2, Homo sapiens, UniProt O43251-10, residues 100-194)", "method": "RNA Bind-n-Seq", "form": "RNA", "matrix": "in vitro", "tested at": "365 nM", "setting": "natural RNA segment, single round, ends assumed", "reference": "no-protein control", "reading": "higher = stronger binding", "Construct (chain)": "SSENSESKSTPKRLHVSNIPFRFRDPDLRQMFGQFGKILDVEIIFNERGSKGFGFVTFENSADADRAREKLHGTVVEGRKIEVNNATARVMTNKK"}
{"Oligonucleotide": "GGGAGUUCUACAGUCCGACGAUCAAAUAUGUAGCAGUCUGUUCCCGGAUGGCCCAGACGGAGGAAGCCACCCACCCCAGCCCUUCCGCUCUGCCUAGCUCUCCCCACCCCCUUCCAUAACCCAAUUCAGGUUUUGGAAUUCUCGGGUGCCAA", "RBNS enrichment (R)": 0.381}
{"Oligonucleotide": "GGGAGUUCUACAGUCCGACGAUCUUGACAGUUGUUCAUUAGCGCACAGUGCCAGAAUGCACACUGAGGUGAGUCUCCUGGAACAGUGGAGAUGCCAGGAGAAAGAAAGACAGGUACUAGCUGAGGUUAUUUUAUGGAAUUCUCGGGUGCCAA", "RBNS enrichment (R)": 2.09}
{"Oligonucleotide": "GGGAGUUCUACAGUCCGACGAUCCAGCUUGUCUGGGCCCUGCCCAAGUUCCGCCAGGGAACCCAGCCCCAGCUCAAGUGCCGCCCCCUCACCGCCAAUUCUCAACUGGUUGCCGUGUACACUGAUUACAUUUCUGGAAUUCUCGGGUGCCAA", "RBNS enrichment (R)": 0.409}
{"Oligonucleotide": "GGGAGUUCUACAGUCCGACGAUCUCACGUCACCUGGUGCGUGGAGGUGGAGCCUGCGGCUGGAGUAAGGCUUGCUGUGGGACGCCCUCGUACUUUGCUCUCCUUGCGGGUGGUUGCCGAGCCGAGAGCAUUGGUGGAAUUCUCGGGUGCCAA", "RBNS enrichment (R)": 1.44}
{"Oligonucleotide": "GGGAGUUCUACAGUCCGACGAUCGGUCUCAGGCAAACAGUUGUUGAAGCUUGCUUCUGUGGCAUUUCUGAAUUGUGGCAGAGCUUAGAUCCUGCACCCAGGGGUCUUUUUUUCAAACAGCAUCUUGCUCAGUUUGGAAUUCUCGGGUGCCAA", "RBNS enrichment (R)": 0.326}
{"Oligonucleotide": "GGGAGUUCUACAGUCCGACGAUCUCUGGUGGAACCCUGCCCCUUACCAGCCUUGAUGGCAGCGGGAAUCUGGUGCUGGGGGCAGCCGGUGCAGCCCCGGGGAGCCCUGGCCUGGUGACCUCGCCGCUCUUCUUUGGAAUUCUCGGGUGCCAA", "RBNS enrichment (R)": 0.539}
{"Oligonucleotide": "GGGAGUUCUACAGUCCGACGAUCAGCUAGGCCCGUGUGGUUAGAUCAGCUUUGUUACUGAAUUACCUAAAACCAGACCACAGCACAGCCAGGGAGCCCAGUAGUGUUUCCAAGAACAGUGUGGAGCUUGAGAAUGGAAUUCUCGGGUGCCAA", "RBNS enrichment (R)": 0.256}
{"Oligonucleotide": "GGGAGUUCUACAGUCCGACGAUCUCAGAAAGAUGUCCAUAAUAAAUAUUAAAAACAAUGGUAUUUUUUAAAAAACUGCCUUAGGGUUUUAAAACCUUCCCUACAGUUAUAACCACGUGUAAUUUUGUGGAAAUUGGAAUUCUCGGGUGCCAA", "RBNS enrichment (R)": 0.476}
{"Oligonucleotide": "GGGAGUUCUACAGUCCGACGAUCCGCACUUCACCCUCGCGAGCCGCUGUUCACUCCUCUCCCCUUUCUCUUUCUCUCUGUUUUUAAAAUAAUCUAAAGAAAGCACAUUUUACCAUUGCUGUUGGGAGGAAGCAUGGAAUUCUCGGGUGCCAA", "RBNS enrichment (R)": 0.694}
{"Oligonucleotide": "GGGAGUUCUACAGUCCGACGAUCCACCCUAGCCUAGGGCUUCGACAUUGCAUGCUGGGAUCCAGCUCCUACCCUUCCUGCACUCCCUUCCCCAGUUCUGCUCAGCUCAGCUGUGGGAGGUAAACUUAAGCUGAUGGAAUUCUCGGGUGCCAA", "RBNS enrichment (R)": 10.9}
{"Oligonucleotide": "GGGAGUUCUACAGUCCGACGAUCUGUGAUUGAUAAAAAGAAGAUGAGUGUUAAUUAGCCUCCAGUGAAAAUAUACUGAAAGCCUGUUUUCAUUUGAUUCCAAUGUUUCUUCCAAAGAAUUCUGUAUAAACAUAUGGAAUUCUCGGGUGCCAA", "RBNS enrichment (R)": 0.383}
{"Oligonucleotide": "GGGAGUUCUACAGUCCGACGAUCGUGGGCAGGGUGUUCUUUCUUCACAUUUUUCUUCCCUUUUUUCCCCAUUUUUAAAUAGUACUUUCUUUGAGUCAUAAAUUGUAUCUAACCAUCUUGGGUUCUGGUCAGUGUGGAAUUCUCGGGUGCCAA", "RBNS enrichment (R)": 0.805}
